Measurements from different studies.
A part holds a random share of what one study measured. Positions count from the first letter of the parent shown.

Set 1 — technique: protein-binding microarray; form: double-stranded DNA, one strand shown; medium: in vitro; tested at: 940 nM top; setting: 60-bp whole probe; together with: salmon DNA 0.4 mg/ml; reference: random background probes; reading: higher = stronger binding; quantity: fitted relative affinity; constant ends, left off below: GCCTAGCAC … GTCTTGATTCGCTTGACGCTGCTG
Target: Interferon regulatory factor 5, full length, phosphomimetic (IRF5, Homo sapiens, UniProt Q13568-2, residues 1-514, S451D/S453D/S456D/S462D)
Oligonucleotide = AACGGTTTCCTACTGCTGACGTGCTAG; result = 1.03 z-score
Oligonucleotide = GACAAACTGAGTTTCGAGACGTGCTAG; result = 3.59 z-score
Oligonucleotide = GACGGACTAGGGACTGGGGACGTGCTA; result = -0.342 z-score
Oligonucleotide = TACGGTTTCGGGTTTCGGGACGTGCTA; result = 8.6 z-score
Oligonucleotide = CTAGATTTCGGGTTTCGATTAGTGCTA; result = 5.61 z-score
Oligonucleotide = GACGATATCGGGTTTCGAGAGGTGCTA; result = 2.02 z-score
Oligonucleotide = TTAGGTTTCGACTATCGGATAGTGCTA; result = 9.88 z-score
Oligonucleotide = GACGATTTCAGTTCCGACACGTGCTAG; result = 0.961 z-score

Set 2 — target: CCND1, cyclin fold, Cln2 fusion (human); technique: yeast growth competition, sequencing; medium: yeast; setting: weak parent motif; reference: not given; reading: higher = stronger binding; quantity: normalised enrichment score
Starting sequence: SLBP docking peptide (human); ARYKRKLLINDFG; partner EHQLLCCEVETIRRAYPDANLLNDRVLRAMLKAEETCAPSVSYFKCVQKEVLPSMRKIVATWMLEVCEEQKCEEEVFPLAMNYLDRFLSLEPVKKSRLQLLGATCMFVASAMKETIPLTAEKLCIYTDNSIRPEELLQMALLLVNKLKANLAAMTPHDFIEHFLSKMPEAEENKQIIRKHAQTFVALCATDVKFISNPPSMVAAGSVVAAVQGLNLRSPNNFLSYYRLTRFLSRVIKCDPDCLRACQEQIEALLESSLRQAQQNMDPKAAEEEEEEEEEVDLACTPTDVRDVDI
Substitution = Y3P; result = -0.354
Substitution = R2Q; result = 0.996
Substitution = L8D; result = -0.255

Set 3 — technique: aptamer microarray, sandwich; form: DNA with 2'F-ANA; medium: in vitro; tested at: 200 nM; together with: Cy3 exosite-II aptamer, 400 nM; reading: higher = stronger binding; quantity: mean fluorescence intensity; oligonucleotide: GGTTGGTGTGGTTGG
Target: Prothrombin, mature alpha-thrombin (F2, Homo sapiens, UniProt P00734)
Setting: whole 15-mer aptamer, many near background
Modification = 2'F-ANA at 1 2 6 8 9 10 12; result = 64.9 a.u.
Modification = 2'F-ANA at 1 2 4 5 6 7 8 9 10 11 13 15; result = 51.1 a.u.
Modification = 2'F-ANA at 1 3 4 7 8 9 10 11 12 13; result = 77.5 a.u.
Modification = 2'F-ANA at 2 4 5 7 8 9 11 13; result = 63.4 a.u.
Modification = 2'F-ANA at 1 3 4 5 7 8 9 10 11 12 13 15; result = 52.7 a.u.
Modification = 2'F-ANA at 1 3 5 6 7 8; result = 68.7 a.u.
Modification = 2'F-ANA at 1 4 8 9 11 12 14; result = 56 a.u.
Modification = 2'F-ANA at 2 5 7 9 10 12 14; result = 48 a.u.

Single results of other studies
Molecule = PhoQ, residues 284 288 289 292 302 303 GANMMA; target = PhoP, residues 12 14 15 18 19 SEGLL (Escherichia coli, UniProt P23836); test = Sort-seq, refers to: YFP reporter; test system = E. coli; conditions = PhoQ-PhoP variant library, together with: 10 µM Mg2+; scale = reference: high Mg2+ state, higher = stronger signaling; quantity = fold induction; result = 13.8
